Experimental data from different studies.
Each line is one published result; not all experiments were run side by side. ± gives the spread as reported.
Cell line: A549

`COc1cc2ncnc(Cc3cccc4ccccc34)c2cc1OC` gave an inhibition of 41% (mitochondrial oxygen consumption, Seahorse XF96; 10 µM).
For `CCN(Cc1cnc2nc(N)nc(N)c2n1)c1ccc(C(=O)N2CCC(C(=O)OC)CC2)cc1`, the cell growth was 135 ± 9.11% (CellTiter-Glo; 10 µM; 100 none, 0 cytostatic, -100 cytotoxic).
With `COc1cccc2c1C(=O)c1c(O)c3c(c(O)c1C2=O)C[C@@](O)(C(=O)CO)C[C@@H]3O[C@H]1C[C@H](N)[C@H](O)[C@H](C)O1` the EC50 was 4620 nM (cell viability, MTT; 48 h).
With `O=c1ccn(Cc2cn(-c3cc4ccccc4oc3=O)nn2)c(=O)[nH]1` the growth was 98.6% (NCI60 single dose; 10 µM).
`COc1ccc2c(Cc3ccc(OC)c(OC)c3)ccnc2c1` has an inhibition of 13% (mitochondrial oxygen consumption, Seahorse XF96; 10 µM).
`COc1ccc2c(c1)NC(=O)CN2c1nc(C)nc2ccccc12` — result for “cells in G2/M phase”: 21.9% (flow cytometry; 0.001 µM, 24 h).
With `CCCCN1CCN(c2ccc3[nH]c(-c4ccc5[nH]c(-c6ccc(OCC)c(OCC)c6)nc5c4)nc3c2)CC1` the growth percent was 37.7% (SRB; 10 µM, 48 h).
`COC(=O)C1CCN(C(=O)c2ccc(N(Cc3ccccc3)Cc3cnc4nc(N)nc(N)c4n3)cc2)CC1` gave a cell growth of 126 ± 7.66% (CellTiter-Glo; 10 µM; 100 none, 0 cytostatic, -100 cytotoxic).
The selectivity index of `COc1c(C)c(OC(=O)c2ccccc2)c(C)c(O)c1C(=O)/C=C/c1ccccc1` is reported as greater than 1.21 (reference: CL over A549).
The growth percent of `CCCCN1CCN(c2ccc3nc(-c4ccc5nc(-c6cc(OC)ccc6OC)[nH]c5c4)[nH]c3c2)CC1` is reported as 105% (SRB; 10 µM, 48 h).
`O=C(NOC[C@H](O)CO)c1ccc(F)c(F)c1Nc1ccc(I)cc1F` has a viability of 69% (0.07813 µM, 72 h).
`C/C(=N\O)c1ccc(-c2ccc(O)c(C)c2)c(Cl)c1O` has a 2-NBDG uptake of 33% (fluorescence imaging; 30 µM, together with: 50 µM 2-NBDG, 15 min; reference: DMSO).
`CCOC(=O)C1CCN(C(=O)c2ccc(N(C)Cc3cnc4nc(N)nc(N)c4n3)cc2)CC1` gave a cell growth of 7.47 ± 7.5% (CellTiter-Glo; 10 µM; 100 none, 0 cytostatic, -100 cytotoxic).
With `COc1cc(C2=CCCc3c2ccc(OC)c3OCc2ccc([N+](=O)[O-])o2)cc(OC)c1OC` the IC50 was 20 ± 8 nM (cell growth, SRB; 4 h exposure then 120 h oxic, oxic exposure then drug removal).
The growth percent of `CCCN1CCN(c2ccc3[nH]c(-c4ccc5[nH]c(-c6ccc(OCC)c(OCC)c6)nc5c4)nc3c2)CC1` is reported as -50.2% (SRB; 10 µM, 48 h).
`O=c1[nH]cc(F)c(=O)[nH]1` gave a selectivity index of 1.81 (cytotoxicity, MTT; reference: HSF over A549 IC50).
`c1ccc2c(Cc3ccc4cn(C5COC5)nc4c3)nccc2c1` has an inhibition of 0% (mitochondrial oxygen consumption, Seahorse XF96; 10 µM).
The TGI of `[Br-].c1ccc2cc(Cn3c[n+](Cc4ccc5ccccc5c4)c4ccccc43)ccc2c1` is reported as 3880 nM (NCI60 five-dose).
`COc1c(C)c(OC(=O)c2ccc(C)cc2)c(C)c(O)c1C(=O)/C=C/c1ccccc1` gave a selectivity index of 1.13 (reference: CL over A549).
The IC50 of `COc1cc(C2=CCCc3c2ccc(OC)c3OCc2ccc([N+](=O)[O-])s2)cc(OC)c1OC` is reported as 380 ± 30 nM (cell growth, SRB; 4 h exposure then 120 h oxic, oxic exposure then drug removal).
With `CCOC(=O)C1CCN(C(=O)c2ccc(N(CC)Cc3cnc4nc(N)nc(N)c4n3)cc2)CC1` the cell growth was 11.4 ± 11.3% (CellTiter-Glo; 10 µM; 100 none, 0 cytostatic, -100 cytotoxic).
`Cn1cnc2c(F)c(Nc3ccc(Br)cc3F)c(C(=O)NOCCO)cc21` gave a viability of 100% (0.03906 µM, 72 h).
The IC50 of `COc1ccc2c(c1NC(=O)OC(C)c1ccc([N+](=O)[O-])s1)CCC=C2c1cc(OC)c(OC)c(OC)c1` (stereo not shown) is reported as 1420 ± 420 nM (4 h, anoxic).
With `Cc1cc(NS(=O)(=O)c2ccc(NC(=O)/C(C#N)=C/c3ccncc3)cc2)no1` the selectivity index was greater than 1.02 (cytotoxicity, MTT; reference: HSF over A549 IC50).
The cell growth of `COC(=O)C1CCN(C(=O)c2ccc(N(CCCO)Cc3cnc4nc(N)nc(N)c4n3)cc2)CC1` is reported as 157% (CellTiter-Glo; 10 µM; 100 none, 0 cytostatic, -100 cytotoxic).
Under “wound healing rate”, `Cc1nc(N(Cc2ccccc2)c2ccc3c(c2)/C(=C/c2ccccc2)C(=O)N3Cc2ccccc2)c2ccccc2n1` (mixture of isomers) is recorded as 39.1% (0.3 µM, 24 h).
`CC1=CC(=O)c2ccccc2C1=O` gave a selectivity index of 0.4 (MTT; reference: IC50 MRC-5 over IC50 A549).
`COc1ccc2c(Cc3ccc(OC)c(OC)c3)ncnc2c1` has an inhibition of 29% (mitochondrial oxygen consumption, Seahorse XF96; 10 µM).
With `COC(=O)C1CCN(C(=O)c2cccc(NCc3cnc4nc(N)nc(N)c4n3)c2)CC1` the cell growth was 148.1 ± 0.88% (CellTiter-Glo; 10 µM; 100 none, 0 cytostatic, -100 cytotoxic).
`COc1cc2ccnc(Cc3ccc4cnn(C)c4c3)c2cc1OC` gave an inhibition of 67% (mitochondrial oxygen consumption, Seahorse XF96; 10 µM).
With `COc1cc(C2=CCCc3c2ccc(OC)c3OCc2ccc([N+](=O)[O-])cc2)cc(OC)c1OC` the IC50 was 130 ± 20 nM (4 h, anoxic).
The EC50 of `CCn1cc(-c2cc(Cn3ccoc3=N)cc3c2CCN([C@@H](C)c2cc(OC)ccn2)C3=O)c(C(F)(F)F)n1` is reported as greater than 30000 nM (cell growth, inhibitor; 120 h).
For `CCCN1CCN(c2ccc3[nH]c(-c4ccc5[nH]c(-c6ccc(C(F)(F)F)cc6)nc5c4)nc3c2)CC1`, the growth percent was -65.1% (SRB; 10 µM, 48 h).
The growth of `O=C1NC(c2ccccc2)(c2ccccc2)C(=O)N1Cc1cn(-c2c3ccccc3nc3ccccc23)nn1` is reported as 78.2% (NCI60 single dose; 10 µM).
`COc1cc(-c2cccc(Cc3ncnc4cc(OC)c(OC)cc34)c2)ccn1` gave an inhibition of 17% (mitochondrial oxygen consumption, Seahorse XF96; 10 µM).
With `COc1cccc2c1C(=O)c1c(O)c3c(c(O)c1C2=O)C[C@@](O)(C(=O)CO)C[C@@H]3O[C@H]1C[C@H](N)[C@H](O)[C@H](C)O1` the selectivity index was 0.9 (MTT; reference: BJ1 over A549).
For `c1ccc(-c2cccc(Cc3ccnc4ccccc34)c2)cc1`, the inhibition was 93% (mitochondrial oxygen consumption, Seahorse XF96; 10 µM).
`COc1cc(C2=CCCc3c2ccc(OC)c3OC(C)(C)c2ccc([N+](=O)[O-])s2)cc(OC)c1OC` gave an IC50 of 180 ± 6 nM (4 h, anoxic).
The inhibition of `COc1ccc(-c2cccc(Cc3ncnc4cc(OC)c(OC)cc34)c2)cc1OC` is reported as 59% (mitochondrial oxygen consumption, Seahorse XF96; 10 µM).
`Cc1n(Cc2ccc3ccccc3c2)c2ccccc2[n+]1Cc1ccc2ccccc2c1.[Br-]` gave a TGI of 3400 nM (NCI60 five-dose).

A few entries again:
`c1ccc2c(Cc3ccc4cn(C5COC5)nc4c3)nccc2c1` has an inhibition of 0% (mitochondrial oxygen consumption, Seahorse XF96; 10 µM).
The IC50 of `COc1cc(C2=CCCc3c2ccc(OC)c3OCc2ccc([N+](=O)[O-])s2)cc(OC)c1OC` is reported as 380 ± 30 nM (cell growth, SRB; 4 h exposure then 120 h oxic, oxic exposure then drug removal).
`COc1cc2ccnc(Cc3ccc4cnn(C)c4c3)c2cc1OC` gave an inhibition of 67% (mitochondrial oxygen consumption, Seahorse XF96; 10 µM).
The inhibition of `COc1ccc(-c2cccc(Cc3ncnc4cc(OC)c(OC)cc34)c2)cc1OC` is reported as 59% (mitochondrial oxygen consumption, Seahorse XF96; 10 µM).
`Cn1cnc2c(F)c(Nc3ccc(Br)cc3F)c(C(=O)NOCCO)cc21` gave a viability of 100% (0.03906 µM, 72 h).
